# Published values of several laboratories.
# ± gives the spread as reported.
Compound,cell line,test,conditions,IC50
C=C(C)[C@@H]1CC[C@]2(C(=O)O)CC[C@]3(C)[C@H](CC[C@@H]4[C@@]5(C)CC[C@H](O[C@@H]6O[C@@H](C)[C@H](O)[C@@H](O)[C@H]6O)C(C)(C)[C@@H]5CC[C@]43C)[C@@H]12,human Skin fibroblast,cell growth or viability,48 h,9 µM
O=c1[nH]c(=O)n([C@@H]2O[C@H](CSSC[C@H]3O[C@@H](n4cc(F)c(=O)[nH]c4=O)[C@H](O)[C@@H](F)[C@@H]3O)[C@@H](O)[C@H](F)[C@H]2O)cc1F,FM3A,cell growth or viability,,71 µM
CC(=O)N1N=C(C)CC1c1ccccc1 (stereo not shown),human Skin fibroblast,"cell growth or viability, LDH",48 h,18.6 µM
N#Cc1c(-c2cccs2)cc(-c2cccc3ccccc23)nc1Nc1ccc(Nc2nc(-c3cccc4ccccc34)cc(-c3cccs3)c2C#N)cc1,U-937,"cell growth or viability, MTT",72 h,0.559 µM
C=C1CCC(O)C(C)=CCC2C1CC2(C)C(=O)C=CC(C)(C)O (stereo not shown),KPC,"cell viability, CCK-8",72 h,17.9 ± 0.87 µM
CC1OC(OCC2OC(Oc3cc(O)c4c(=O)cc(-c5ccc(O)c(O)c5)oc4c3)C(O)C(O)C2O)C(O)C(O)C1O (stereo not shown),HCT-116 p53+/+,"cell viability, resazurin reduction",72 h,> 100 µM
CCn1c2ccccc2c2cc(C(O)c3cccc4ncccc34)ccc21 (stereo not shown),sample B patient-derived glioma cells,tumour microtube number per cell,24 h,0.015 µM
Cc1cc(C)c(-n2c3c([n+](-c4c(C)cc(C)cc4C)[c]2[Cu-][Cl])-c2cccc4cccc-3c24)c(C)c1,CHO,"cell growth or viability, MTT",72 h,1.3 µM
O=C(/C=C/c1ccc2c(c1)C(=O)N(CCCc1ccccc1)CC2)NO,Bel-7402,"cell growth, SRB",72 h,1.5 ± 0.09 µM
CC(C)C[C@H](NC(=O)[C@@H]1CCCN1C(=O)[C@@H]1CCCN1C(=O)[C@H](CC(N)=O)NC(=O)[C@@H](N)Cc1ccc(Cl)c(Cl)c1)C(=O)N[C@@H](Cc1c[nH]cn1)C(=O)N[C@@H](CO)C(=O)N[C@H](C(=O)N[C@@H](C)C(=O)O)[C@@H](C)OP(=O)(O)O,U-266,"cell growth or viability, MTT",72 h,2.25 µM
C#CCOc1cc(C(=O)C2=C(C)C(=O)c3ccccc3C2=O)ccc1[N+](=O)[O-],MRC-5,cytotoxicity,,42.2 µM
COC(=O)c1ccc(-n2nc(C(F)(F)F)cc2-c2cc(OC)c(OC)c(OC)c2)cc1,EMT6/AR1 multidrug-resistant,"cell proliferation, sulforhodamine B",,14.7 ± 0.3 µM
CC1CNCCN1C(=O)c1cn(C23CCCC(C)(CCC4C2CC4(C)C)C3)nn1 (stereo not shown),NCM460,"cell growth or viability, CCK-8",72 h,21.6 µM
CC/C(=C(\c1ccc(O)cc1)c1ccc(OCCN(C)CCOCCOCCOCCOCCOCCN(C)CCOc2ccc(/C(=C(/CC)c3ccccc3)c3ccc(O)cc3)cc2)cc1)c1ccccc1,MDA-MB-231 (ER-negative),cell growth,96 h,1.2 µM
CO[C@H]1O[C@H](COC(c2ccccc2)(c2ccccc2)c2ccccc2)[C@@H](OS(=O)(=O)c2ccccc2)[C@H](OS(=O)(=O)c2ccccc2)[C@H]1OS(=O)(=O)c1ccccc1,Ehrlich,"cell growth or viability, MTT",,2600 µg/mL
CCCC/C=N/NC(=O)c1cc2cc(Nc3nccc(-c4cccnc4)n3)ccc2[nH]1,LO2,"cell viability, MTT",48 h,> 50 µM
COC(=O)[C@@H]1[C@@H](OC)[C@H](OC(=O)c2cc(OC)c(OC)c(OC)c2)C[C@@H]2CN3CC[C@]4(O[C@@H]3C(=O)[C@@H]21)C(=O)Nc1cc(OC)c(-c2ccc(C(F)(F)F)cc2)cc14,SUP-T1,"cell growth or viability, trypan blue",72 h,1.62 µM
N#Cc1c(F)c(F)c2nc(SCC3CCCO3)nc(N)c2c1F (stereo not shown),SGC-7901,"cell growth or viability, MTT",96 h,12.2 µM
Cc1cc(C)c(-n2c3c([n+](-c4c(C)cc(C)cc4C)[c]2[Au-][Cl])-c2cccc4cccc-3c24)c(C)c1,CHO,"cell growth or viability, MTT",72 h,28 µM
COCCOCCSc1nc(N)c2c(F)c(C#N)c(F)c(F)c2n1,SGC-7901,"cell growth or viability, MTT",96 h,5.68 µM
N#Cc1cccc(-c2ccc(=O)n(Cc3cccc(-c4ncc(OCC5CCN(CCCCCCCCCC(=O)Nc6cccc7c6C(=O)N(C6CCC(=O)NC6=O)C7=O)CC5)cn4)c3)n2)c1 (stereo not shown),Hs746T,"cell growth or viability, CCK-8",72 h,0.226 µM
COc1ccc(-c2nnc(-c3ccccn3)[nH]2)cc1OC.COc1ccc(-c2nnc(-c3ccccn3)[nH]2)cc1OC.[Cu+2].[O-][Cl+3]([O-])([O-])[O-].[O-][Cl+3]([O-])([O-])[O-],T24,"cell growth or viability, MTT",24 h,91.4 µM
CC/C(=C(\c1ccc(O)cc1)c1ccc(OCCN(C)CCOCCOCCN(C)CCOc2ccc(/C(=C(/CC)c3ccccc3)c3ccc(O)cc3)cc2)cc1)c1ccccc1,MDA-MB-231 (ER-negative),cell growth,96 h,1.84 µM
COc1cc(/C=C/C(=O)/C=C(O)/C=C/c2ccc(OCC(=O)N3CCOCCOCCOCCOCCOCC3)c(OC)c2)ccc1OCC(=O)N1CCOCCOCCOCCOCCOCC1,SK-LU-1,"cell growth or viability, SRB",,6.2 µM
C(=C/c1ccccc1)/c1ccccc1,U-937,"cell growth or viability, ATP luminescence",24 h,30 µM
O=c1ccn([C@@H]2O[C@H](CSSC[C@H]3O[C@@H](n4ccc(=O)[nH]c4=O)[C@H](O)[C@@H](F)[C@@H]3O)[C@@H](O)[C@H](F)[C@H]2O)c(=O)[nH]1,FM3A,cell growth or viability,,123 µM
C[N+]1(C)CC[NH2+][Pt-2]1([OH])([OH])([Cl])[Cl],SW1573,cell growth or viability,96 h,130 µM
CCC1=C(CC)C2=[N+]3C1=Cc1c(CC)c(CC)c4[n]1[Ir-3]31([C]#[N+]c3ccc(OC)cc3)([C]#[N+]c3ccc(OC)cc3)[n]3c(c(CC)c(CC)c3=CC3=[N+]1C(=C4)C(CC)=C3CC)=C2.F[B-](F)(F)F,HCC827,"cell growth or viability, MTT",72 h,50 µM
O=C([O][Ti+2][O]C(=O)c1ccc([P+]([Au-][Cl])(c2ccccc2)c2ccccc2)cc1)c1ccc([P+]([Au-][Cl])(c2ccccc2)c2ccccc2)cc1.c1cc[cH-]c1.c1cc[cH-]c1,UO-31,"cell viability, XTT",72 h,0.3 µM
O=C1c2ccc3c4ccc5c6c(ccc(c7ccc(c2c37)C(=O)N1CCN1CCCCC1)c64)C(=O)N(CCN1CCCCC1)C5=O,"A549, PC-3, HL-60","cytotoxicity, SRB","72 h, range over three lines",52.5 to 86.2 µM
C=CC(=O)N1C[C@H](C)N(c2nc(OC[C@@]34CCCN3C[C@H](F)C4)nc3c(F)c(-c4ccc(F)c5sc(N)c(C#N)c45)c(C(F)(F)F)cc23)C[C@H]1C,A-375 (BRAF V600E),3D cell viability,7 days,> 10 µM
CCC(C)C1OC(=O)C(C)(C)C(O)C(Cc2ccccc2)OC(=O)C(C(C)C)OC(=O)C(NC(=O)c2cccc(O)c2)C(C)OC1=O (stereo not shown),NCM460,"cell growth or viability, CCK-8",72 h,> 50 µM
N#Cc1c(F)c(F)c2nc(SCc3ccc4ccccc4c3)nc(N)c2c1F,SGC-7901,"cell growth or viability, MTT",96 h,5.89 µM
CC(C)=CCC1=C([O-])C(=O)c2ccccc2C1=O.CC(C)=CCC1=C([O-])C(=O)c2ccccc2C1=O.Cc1cc2cccnc2c2ncccc12.[Cu+2],HOS,"cell viability, MTT",24 h,3.2 ± 0.2 µM
CC(=O)Nc1ccc(/C=C/c2nc3ccc(Br)cc3nc2/C=C/c2ccc(NC(C)=O)cc2)cc1,Hs68,"cell growth or viability, MTT",,9.29 µM
CN1CCC(S(=O)(=O)NC23CCCC(C)(CCC4C2CC4(C)C)C3)CC1 (stereo not shown),NCM460,"cell growth or viability, CCK-8",72 h,23.7 µM
Cc1ccc2oc(-c3c4c(N)n[nH]c(=O)c4nn3-c3ccc(NC(=O)/C=C/CN(C)C)cc3)c(C)c2c1,UMUC14,cell growth or viability,,0.043 µM
O=C(O)/C(Cc1ccccc1[N+](=O)[O-])=N\Nc1nc2c(s1)CS(=O)(=O)c1cc(Cl)c(Cl)cc1-2,CRL-2351,"cell growth, sulforhodamine B",5 days,> 20 µM
CN1CCCNC(=O)c2cccc(c2)C(=O)NCCCN(C)CCCNc2cccc3c2C(=O)c2cccc(c2C3=O)NCCC1,ASF-4-4L2,"cell proliferation, CCK-8",48 h,6.3 µM
Cc1cc(C#N)cc(C)c1Oc1cc(Nc2ccc(C#N)cn2)nc2ccncc12,H69AR (multidrug resistant),,48 h,> 127 µM
CCCC(CCC)C(=O)[O][Pt]([NH2])([NH2])([Cl])([Cl])[O]C(=O)C(C)c1ccc(CC(C)C)cc1 (stereo not shown),six human cancer lines,"cytotoxicity, MTT",,1.29 µM
CC(=O)Oc1cc2c(cc1C(C)C)C1(CC3C(C)(CN4C(=O)c5c(Cl)c(Cl)c(Cl)c(Cl)c5C4=O)CCCC23C)C23c4c5c6c7c8c9c(c%10c%11c2c2c4c4c%12c5c5c6c6c8c8c%13c9c9c%10c%10c%11c%11c2c2c4c4c%12c%12c5c5c6c8c6c8c%13c9c9c%10c%10c%11c2c2c4c4c%12c5c6c5c8c9c%10c2c45)C713 (stereo not shown),U-937,"cell growth or viability, MTT",48 h,> 30 µM
CC(C)(C)ONc1nc(Nc2ccnc(C(F)(F)F)c2)nc(-c2cccc(C(F)(F)F)n2)n1,TF-1 IDH2 R140Q,,72 h,0.0099 ± 0.0028 µM
N#Cc1cccc(-c2ccc(=O)n(Cc3cccc(-c4ncc(OCC5CCN(CC(=O)NCCOCCNc6cccc7c6C(=O)N(C6CCC(=O)NC6=O)C7=O)CC5)cn4)c3)n2)c1 (stereo not shown),Hs746T,"cell growth or viability, CCK-8",72 h,0.0247 µM
COc1cccc(-c2ccc(Nc3ccc(CN(C)C)cc3)c(OC)c2F)c1,A-375 (BRAF V600E),"ERK phosphorylation, HTRF",,74.7 µM
CCCC(CCC)C(=O)[O][Pt]([Cl])([Cl])[O]C(=O)C(CCC)CCC.N.N,seven cancer cell lines,cytotoxicity,mean over panel,1.4 µM
CCC(C)C1OC(=O)C(C)(C)C(=O)C(Cc2ccccc2)OC(=O)C(C(C)C)OC(=O)C(NC(=O)c2cccc(O)c2)C(C)OC1=O (stereo not shown),NCM460,"cell viability, CCK-8",72 h,> 50 µM
N#Cc1cccc(-c2ccc(=O)n(Cc3cccc(-c4ncc(OCC5CCN(CCCC(=O)Nc6cccc7c6C(=O)N(C6CCC(=O)NC6=O)C7=O)CC5)cn4)c3)n2)c1 (stereo not shown),Hs746T,"cell growth or viability, CCK-8",72 h,0.0658 µM
Cc1cc(/C=C/C#N)cc(C)c1Oc1cc(Nc2ccc(C#N)cn2)nc2cnccc12,H69AR (multidrug resistant),,48 h,> 120 µM
CCNc1ccc(-c2nc3cc(OCCF)ccc3n3cccc23)cc1,HEK293 DR-GFP reporter,"homologous recombination, inhibitor",48 h,10.9 ± 5.6 µM
O=C1c2ccc3c4cccc5cccc(c6ccc(c2c36)C(=O)N1CCN1CCCCC1)c54,"A549, PC-3, HL-60","cytotoxicity, SRB","72 h, range over three lines",36.9 to 50.9 µM
CCC1=C(CC)C2=[N+]3C1=Cc1c(CC)c(CC)c4[n]1[Ir-3]31([Cl])([C]#[O+])[n]3c(c(CC)c(CC)c3=CC3=[N+]1C(=C4)C(CC)=C3CC)=C2,HCC827,"cell growth or viability, MTT",72 h,> 50 µM

# For quick reference, copied from above:
Compound,cell line,test,conditions,IC50
CCCC(CCC)C(=O)[O][Pt]([Cl])([Cl])[O]C(=O)C(CCC)CCC.N.N,seven cancer cell lines,cytotoxicity,mean over panel,1.4 µM
CN1CCCNC(=O)c2cccc(c2)C(=O)NCCCN(C)CCCNc2cccc3c2C(=O)c2cccc(c2C3=O)NCCC1,ASF-4-4L2,"cell proliferation, CCK-8",48 h,6.3 µM
COCCOCCSc1nc(N)c2c(F)c(C#N)c(F)c(F)c2n1,SGC-7901,"cell growth or viability, MTT",96 h,5.68 µM
CO[C@H]1O[C@H](COC(c2ccccc2)(c2ccccc2)c2ccccc2)[C@@H](OS(=O)(=O)c2ccccc2)[C@H](OS(=O)(=O)c2ccccc2)[C@H]1OS(=O)(=O)c1ccccc1,Ehrlich,"cell growth or viability, MTT",,2600 µg/mL
O=C1c2ccc3c4cccc5cccc(c6ccc(c2c36)C(=O)N1CCN1CCCCC1)c54,"A549, PC-3, HL-60","cytotoxicity, SRB","72 h, range over three lines",36.9 to 50.9 µM
COC(=O)c1ccc(-n2nc(C(F)(F)F)cc2-c2cc(OC)c(OC)c(OC)c2)cc1,EMT6/AR1 multidrug-resistant,"cell proliferation, sulforhodamine B",,14.7 ± 0.3 µM
CC(C)(C)ONc1nc(Nc2ccnc(C(F)(F)F)c2)nc(-c2cccc(C(F)(F)F)n2)n1,TF-1 IDH2 R140Q,,72 h,0.0099 ± 0.0028 µM
CCC1=C(CC)C2=[N+]3C1=Cc1c(CC)c(CC)c4[n]1[Ir-3]31([Cl])([C]#[O+])[n]3c(c(CC)c(CC)c3=CC3=[N+]1C(=C4)C(CC)=C3CC)=C2,HCC827,"cell growth or viability, MTT",72 h,> 50 µM
